# Values quoted from earlier work as cited in several papers.
# Each line is one published result; not all experiments were run side by side. Several values in a cell are separate wells, animals, samples, runs or records. Numbers after ± are the reported error.
Compound,tested on,assay,test system,setting,quantity,result
C=C(C)[C@@H]1CCC(C)=C[C@H]1c1c(O)cc(CCCCC)cc1O,CYP3A5,,,,IC50,1.65 µM
CC(C)(C)NCc1ccc(Nc2ccnc3cc(Cl)ccc23)cc1O,hERG channel,cell-based,,,IC50,7.5 µM
FC1(F)C(F)(F)C(F)(F)C2(F)C(F)(C1(F)F)C(F)(F)C(F)(F)C1(F)C(F)(F)C(F)(F)C(F)(F)C(F)(F)C12F (centres unmarked),CYP2C9,inhibitor,,Tox21 screening,IC50,inactive
O[C@H]1CCCN[C@@H]1CCCn1cnc2c(Cl)c(Cl)ccc21,OCT1,inhibitor,,,IC50,55.3 µM
O=C(O)C(F)(F)C(F)(F)C(F)(F)C(F)(F)C(F)(F)C(F)(F)C(F)(F)C(F)(F)C(F)(F)F,CYP3A4,inhibitor,,Tox21 screening,IC50,inactive
CC(=O)C(C)n1ncn(-c2ccc(N3CCN(c4ccc(OC[C@H]5CO[C@](Cn6cncn6)(c6ccc(Cl)cc6Cl)O5)cc4)CC3)cc2)c1=O (some centres unmarked),CYP3A4 human,inhibitor,,together with: midazolam,IC50,0.007 µM
O=C(O)C(F)(F)C(F)(F)C(F)(F)C(F)(F)C(F)(F)C(F)(F)F,CYP2C9,inhibitor,,Tox21 screening,IC50,6.33 µM
COc1cc([C@@H]2c3cc4c(cc3[C@@H](O[C@@H]3O[C@@H]5CO[C@@H](C)O[C@H]5[C@H](O)[C@H]3O)[C@H]3COC(=O)[C@H]23)OCO4)cc(OC)c1O,MRP1,inhibitor,,,IC50,48 µM
CN(C)CCCN1c2ccccc2CCc2ccc(Cl)cc21,,,mouse,,fraction unbound,0.004
COc1ccc([C@H]2c3[nH]c4ccc(Cl)cc4c3CCN2C(=O)Oc2ccc(Cl)cc2)cc1,BCRP,"substrate transport, inhibitor",,,IC50,1.27 µM
COC(=O)[C@@H]1C[C@H](OC(C)=O)C(=O)[C@H]2[C@@]1(C)CC[C@H]1C(=O)O[C@H](c3ccoc3)C[C@]21C,kappa opioid receptor E297A,,,,Ki,15 nM and 19.5 nM
C=C[C@@H]1C[C@]1(NC(=O)[C@@H]1C[C@@H]2CN1C(=O)[C@H](C(C)(C)C)NC(=O)O[C@@H]1C[C@H]1CCCCCc1nc3ccc(OC)cc3nc1O2)C(=O)NS(=O)(=O)C1CC1,CYP1A2,,human liver microsomes,,IC50,> 100 µM
CN1CCN(C2=Nc3cc(Cl)ccc3Nc3ccccc32)CC1,,,mouse,,fraction unbound,0.0113
CCCCCOc1ccc(-c2ccc(-c3ccc(C(=O)N[C@H]4C[C@@H](O)[C@@H](O)NC(=O)[C@@H]5[C@@H](O)[C@@H](C)CN5C(=O)[C@H]([C@@H](C)O)NC(=O)[C@H]([C@H](O)[C@@H](O)c5ccc(O)cc5)NC(=O)[C@@H]5C[C@@H](O)CN5C(=O)[C@H]([C@@H](C)O)NC4=O)cc3)cc2)cc1,,,human renal impairment severe,50 mg single dose,AUC(0-inf),56.5 ± 10.4 mg·h/L

# Some of these lines once more:
Compound,tested on,assay,test system,setting,quantity,result
O=C(O)C(F)(F)C(F)(F)C(F)(F)C(F)(F)C(F)(F)C(F)(F)F,CYP2C9,inhibitor,,Tox21 screening,IC50,6.33 µM
COc1cc([C@@H]2c3cc4c(cc3[C@@H](O[C@@H]3O[C@@H]5CO[C@@H](C)O[C@H]5[C@H](O)[C@H]3O)[C@H]3COC(=O)[C@H]23)OCO4)cc(OC)c1O,MRP1,inhibitor,,,IC50,48 µM
